{"data": "Measured values from different studies", "note": "Every numbered part comes from another study and shows a few of its results, in no order."}
{"data": "Block 1", "target": "RNA binding protein fox-1 homolog 2, RRM domain, GST-SBP tag (RBFOX2, Homo sapiens, UniProt O43251-10, residues 100-194)", "method": "RNA Bind-n-Seq", "molecule type": "RNA", "medium": "in vitro", "tested at": "365 nM", "setting": "natural RNA segment, single round, ends assumed", "relative to": "no-protein control", "reading": "higher = stronger binding", "shared flanks, not repeated": "GGGAGUUCUACAGUCCGACGAUC … UGGAAUUCUCGGGUGCCAA", "Target sequence (chain)": "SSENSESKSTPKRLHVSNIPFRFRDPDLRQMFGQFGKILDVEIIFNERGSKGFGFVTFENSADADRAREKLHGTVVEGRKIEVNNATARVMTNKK"}
{"Oligonucleotide": "UGUAUGGGGUAUGAGGAGAUAAUGAAAGAAAAGUGGUCCUCAUGCUGGAUAUGUGACUGUUUUGUUCUCUGUAAAGUGUAUUCUUGGGAAGUGAUUGGUUUAUAUCAGAU", "RBNS enrichment (R)": 7.12}
{"Oligonucleotide": "AGUGACAGGGGCCCCAACUUAGCAUCCCUUCCCUUCCGUUAGGAAGGAGAUGACCGGAAGCAACCCCUUCACAGACACGAGCACAUCGGCAAACCCUAUGAAAGUGGAAU", "RBNS enrichment (R)": 0.281}
{"Oligonucleotide": "UGGGUCCAGUUGCAGUGGCCAAUUUCCUGAAACCUGUCUUUUCCUAAGCGCUGACCGUGAACUCUGCCCUUGAUGGCGCUAAGCUGUCUGGACAGUGCGGUUACAAGCAU", "RBNS enrichment (R)": 0.309}
{"Oligonucleotide": "CAAAGCCCUGCCAGCAAGGGGAUGGCACCACUGGAGCUCUUGCCAAAUCACUCUCAGCCCUGUAUUUGGUACCGGUGUGUCCCAGGUCAAUGUACAGAACUGCAGCCAAG", "RBNS enrichment (R)": 0.505}
{"Oligonucleotide": "GCUUUAAUCAGAAAAAGCCUCCACUUUCUGUAUUAUGUUAACAUUGGCUCAUGCAUAUAACUAUCUGCUGCUGAUGUAGUUCUCCAUCUUCAAGAUUUAGAGUGGGUUAA", "RBNS enrichment (R)": 0.727}
{"Oligonucleotide": "UUUUUUUCCUCUCUUUUUCAGUUAUGAAACUUGUAUGCAUGGAUUUCACAUCUCCAUAGCUAGACCCGCCAUGGGCAUUAUGACCGUGUCUCCUAAAGGGUCGGUUUUGU", "RBNS enrichment (R)": 0.424}
{"Oligonucleotide": "GUUUAAGCAUUCUUGUUGCAUUGUCUCUGCAGAUUCUAUUUUUGUUUACAAUAUUAAAAUGUAUGUUAGCAAAAUGGGUGGAUUUUCAAAUAAAAUGCAGCUUCCACAAA", "RBNS enrichment (R)": 0.538}
{"Oligonucleotide": "UUAUUUUUAAAAAGGAAGGAAGGAGCAAGUGAAGUUUCAUUCUGCUCCAGCGGUGGGGAAGCCGCUGAAUCCACCUGCUUCUCCUUUGCAACCGACAGCAAACAGCUUUC", "RBNS enrichment (R)": 0.324}
{"data": "Block 2", "target": "Sal-like protein 4, full length isoform B (SALL4, Homo sapiens, UniProt Q9UJQ4-2, residues 1-616)", "method": "universal PBM", "molecule type": "double-stranded DNA, one strand shown", "medium": "in vitro", "tested at": "not given", "setting": "8-mer, flanks averaged, mean of replicates", "reading": "higher = stronger binding"}
{"Oligonucleotide": "AACGTCGT", "E-score": -0.102}
{"Oligonucleotide": "GAAAGACC", "E-score": -0.209}
{"Oligonucleotide": "CACCACAA", "E-score": 0.00116}
{"Oligonucleotide": "CGTCGCTA", "E-score": -0.134}
{"Oligonucleotide": "TCGTAAAA", "E-score": 0.328}
{"Oligonucleotide": "ACAGCCGG", "E-score": -0.334}
{"Oligonucleotide": "GGGCGACC", "E-score": -0.369}
{"Oligonucleotide": "GTACCTAC", "E-score": -0.0942}
{"Oligonucleotide": "ACATGACC", "E-score": 0.0621}
{"Oligonucleotide": "CACCAATC", "E-score": -0.0588}
{"Oligonucleotide": "AGGCTTTG", "E-score": -0.262}
{"Oligonucleotide": "TAGAACAA", "E-score": 0.223}
{"Oligonucleotide": "GAATGGTC", "E-score": -0.194}
{"Oligonucleotide": "ACTAGCCG", "E-score": -0.24}
{"Oligonucleotide": "GCACGGAC", "E-score": -0.219}
{"Oligonucleotide": "ATGGGATA", "E-score": 0.111}
{"Oligonucleotide": "AAATTCTT", "E-score": 0.204}
{"Oligonucleotide": "AGGACGCC", "E-score": -0.265}
{"Oligonucleotide": "CAGAACAC", "E-score": -0.0965}
{"Oligonucleotide": "TCGAACGA", "E-score": -0.0583}
{"Oligonucleotide": "TCTGGGAA", "E-score": -0.0631}
{"Oligonucleotide": "ACGAAATG", "E-score": 0.0195}
{"Oligonucleotide": "AGCAGGAC", "E-score": -0.244}
{"Oligonucleotide": "ATCTCAGA", "E-score": -0.0921}
{"Oligonucleotide": "ACGGGACA", "E-score": -0.155}
{"data": "Block 3", "target": "Interferon regulatory factor 7, full length, phosphomimetic (IRF7, Homo sapiens, UniProt Q92985, residues 1-503, S471D/S472D/S475D/S476D/S477D/S483D/S484D/S487D)", "method": "protein-binding microarray", "molecule type": "double-stranded DNA, one strand shown", "medium": "in vitro", "tested at": "2200 nM top", "setting": "60-bp whole probe", "with": "salmon DNA 0.4 mg/ml", "relative to": "random background probes", "reading": "higher = stronger binding", "shared flanks, not repeated": "GCCTAGCAC … GTCTTGATTCGCTTGACGCTGCTG", "UniProt Q92985, sequence (whole entry, unmodified, looked up)": "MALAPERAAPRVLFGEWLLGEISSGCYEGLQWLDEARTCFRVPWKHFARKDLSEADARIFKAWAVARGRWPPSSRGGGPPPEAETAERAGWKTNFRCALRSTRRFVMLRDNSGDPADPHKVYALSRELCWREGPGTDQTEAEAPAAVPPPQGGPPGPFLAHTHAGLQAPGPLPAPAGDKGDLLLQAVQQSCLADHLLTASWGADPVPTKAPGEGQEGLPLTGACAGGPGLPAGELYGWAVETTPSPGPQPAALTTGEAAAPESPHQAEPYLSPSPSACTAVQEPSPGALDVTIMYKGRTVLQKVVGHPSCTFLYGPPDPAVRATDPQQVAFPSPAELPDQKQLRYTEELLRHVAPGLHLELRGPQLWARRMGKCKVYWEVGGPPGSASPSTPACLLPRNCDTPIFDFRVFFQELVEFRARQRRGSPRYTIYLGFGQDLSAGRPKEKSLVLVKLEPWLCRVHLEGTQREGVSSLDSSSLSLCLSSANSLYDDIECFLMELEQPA"}
{"Oligonucleotide": "TTCGGACTGCTTCTCCTTTAGTGCTAG", "fitted relative affinity [z-score]": 1.15}
{"Oligonucleotide": "TTATGTTTCGGTTCCGGTTAGTGCTAG", "fitted relative affinity [z-score]": 9.79}
{"Oligonucleotide": "TTAGATATCAGTATCGATTCGTGCTAG", "fitted relative affinity [z-score]": 1.24}
{"Oligonucleotide": "GACGGTTTCGATTATCGGGACGTGCTA", "fitted relative affinity [z-score]": 5.34}
{"Oligonucleotide": "TGAGAACTGGGGTATCGATTAGTGCTA", "fitted relative affinity [z-score]": -0.163}
{"Oligonucleotide": "GAAGGTATCCTTATCCTGACGTGCTAG", "fitted relative affinity [z-score]": 0.563}
{"Oligonucleotide": "CTGCCTCACATTGCTAAGACGTGCTAG", "fitted relative affinity [z-score]": 0.683}
{"Oligonucleotide": "CCTCACTTCCTTCTGCCTGTGTGCTAG", "fitted relative affinity [z-score]": 2.61}
{"Oligonucleotide": "GACGGACTGGACTTACGGGACGTGCTA", "fitted relative affinity [z-score]": -0.89}
{"Oligonucleotide": "GCTGCCCTCACCATCATCCTGTGCTAG", "fitted relative affinity [z-score]": 0.896}
{"Oligonucleotide": "TCATCTTTTCATTACTGACTGTGCTAG", "fitted relative affinity [z-score]": 1.87}
{"Oligonucleotide": "TCACCTTTTGCTTTACTACTGTGCTAG", "fitted relative affinity [z-score]": 3.57}
{"Oligonucleotide": "TTAGGTCTCCTACTGTTTTAGTGCTAG", "fitted relative affinity [z-score]": 0.888}
{"Oligonucleotide": "GACGAACTGGGGTGTCGAGACGTGCTA", "fitted relative affinity [z-score]": -0.212}
{"Oligonucleotide": "GACGATTTCGAGACTGGAGACGTGCTA", "fitted relative affinity [z-score]": 1.33}
{"Oligonucleotide": "GACGATTTCGGTTTTCGAGACGTGCTA", "fitted relative affinity [z-score]": 8.05}
{"Oligonucleotide": "TTAGAACTGAGACTGGACTAGTGCTAG", "fitted relative affinity [z-score]": -0.752}
{"Oligonucleotide": "TTAGGACCGGGGTATCGGTTAGTGCTA", "fitted relative affinity [z-score]": -0.843}
{"Oligonucleotide": "TTAGAACTGAATCTCGATTAGTGCTAG", "fitted relative affinity [z-score]": -0.385}
{"data": "Block 4", "target": "PABPC1L2, full length, GST fusion (mouse, UniProt A0ABA7IW68)", "method": "RNAcompete", "molecule type": "RNA", "medium": "in vitro", "tested at": "20 nM", "setting": "7-mer, probes averaged, single round", "relative to": "mean of 7-mers", "reading": "higher = stronger binding", "Construct (chain)": "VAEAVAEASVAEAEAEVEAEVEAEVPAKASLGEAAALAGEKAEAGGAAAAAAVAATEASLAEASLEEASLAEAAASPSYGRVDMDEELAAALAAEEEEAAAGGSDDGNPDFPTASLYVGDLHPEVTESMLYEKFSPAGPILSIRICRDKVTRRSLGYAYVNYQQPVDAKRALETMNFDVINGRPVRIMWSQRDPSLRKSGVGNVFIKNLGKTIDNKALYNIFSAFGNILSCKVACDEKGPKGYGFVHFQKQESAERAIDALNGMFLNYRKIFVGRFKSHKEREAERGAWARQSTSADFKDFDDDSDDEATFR"}
{"Oligonucleotide": "CCAAACU", "7-mer Z-score": -0.106}
{"Oligonucleotide": "GAGGCCA", "7-mer Z-score": 0.109}
{"Oligonucleotide": "UAACCUA", "7-mer Z-score": -0.142}
{"Oligonucleotide": "UUAUACC", "7-mer Z-score": -0.291}
{"Oligonucleotide": "AAAUGUG", "7-mer Z-score": 0.916}
{"Oligonucleotide": "CCCAGAA", "7-mer Z-score": -0.012}
{"Oligonucleotide": "ACUUGCA", "7-mer Z-score": -0.0409}
{"Oligonucleotide": "UGUUGGC", "7-mer Z-score": -0.306}
{"Oligonucleotide": "GUGACGC", "7-mer Z-score": -0.104}
{"Oligonucleotide": "CAGGACC", "7-mer Z-score": 0.16}
{"Oligonucleotide": "UGAAACG", "7-mer Z-score": -0.0591}
{"Oligonucleotide": "UGUCAAU", "7-mer Z-score": -0.289}
{"Oligonucleotide": "GUCUUGG", "7-mer Z-score": -0.193}
{"Oligonucleotide": "UCCCCAC", "7-mer Z-score": -0.434}
{"Oligonucleotide": "GGACAUG", "7-mer Z-score": 0.129}
{"Oligonucleotide": "GCUCCCA", "7-mer Z-score": -0.224}
{"Oligonucleotide": "CGGGACA", "7-mer Z-score": 0.312}
{"Oligonucleotide": "ACUACCG", "7-mer Z-score": -0.204}
{"Oligonucleotide": "UUAACAG", "7-mer Z-score": -0.0971}
{"Oligonucleotide": "CCUUGUA", "7-mer Z-score": -0.209}
{"Oligonucleotide": "CAUAAGC", "7-mer Z-score": -0.0808}
{"Oligonucleotide": "UUGGCUG", "7-mer Z-score": -0.144}
{"Oligonucleotide": "CAACACU", "7-mer Z-score": -0.0772}
{"Oligonucleotide": "GUCCUUU", "7-mer Z-score": -0.249}
{"Oligonucleotide": "GACGACA", "7-mer Z-score": 0.00979}
{"note": "Excerpt of the above (block 4):"}
{"Oligonucleotide": "ACUUGCA", "7-mer Z-score": -0.0409}
{"Oligonucleotide": "UCCCCAC", "7-mer Z-score": -0.434}
{"Oligonucleotide": "GUCCUUU", "7-mer Z-score": -0.249}
{"Oligonucleotide": "CCCAGAA", "7-mer Z-score": -0.012}
{"Oligonucleotide": "GUGACGC", "7-mer Z-score": -0.104}
{"Oligonucleotide": "UUAUACC", "7-mer Z-score": -0.291}
{"Oligonucleotide": "CAUAAGC", "7-mer Z-score": -0.0808}
{"Oligonucleotide": "UGUUGGC", "7-mer Z-score": -0.306}
{"Oligonucleotide": "UUGGCUG", "7-mer Z-score": -0.144}
{"Oligonucleotide": "GACGACA", "7-mer Z-score": 0.00979}
{"Oligonucleotide": "GGACAUG", "7-mer Z-score": 0.129}
{"Oligonucleotide": "UGAAACG", "7-mer Z-score": -0.0591}
{"Oligonucleotide": "CGGGACA", "7-mer Z-score": 0.312}
